Assay results collected from several papers.
Several values in a cell are separate wells, animals, samples, runs or records. ± marks the error that the study gave.
CDK7 with cyclin H, MAT1: Cyclin-dependent kinase 7, with cyclin H, MAT1 (CDK7, Homo sapiens, UniProt P50613)
Chain of UniProt P50613 (whole entry, looked up): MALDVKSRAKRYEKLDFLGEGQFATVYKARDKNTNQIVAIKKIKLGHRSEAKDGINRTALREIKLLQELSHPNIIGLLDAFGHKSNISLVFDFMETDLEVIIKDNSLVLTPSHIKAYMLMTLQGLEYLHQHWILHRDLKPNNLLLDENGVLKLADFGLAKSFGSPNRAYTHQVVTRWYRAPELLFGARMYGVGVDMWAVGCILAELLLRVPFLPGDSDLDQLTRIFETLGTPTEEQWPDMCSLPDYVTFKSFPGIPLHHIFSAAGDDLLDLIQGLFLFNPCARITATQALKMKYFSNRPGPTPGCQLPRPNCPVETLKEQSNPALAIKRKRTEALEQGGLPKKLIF
CDK7: Cyclin-dependent kinase 7 (CDK7, Homo sapiens, UniProt P50613)

| SMILES | target | test | system | setting | how to read | endpoint | value |
| --- | --- | --- | --- | --- | --- | --- | --- |
| O=C(CSc1nc2nccnc2c(=O)n1CCc1ccccc1)Nc1nccs1 | CDK7 with cyclin H, MAT1 | kinase activity, inhibitor |  | 10 µM |  | inhibition | -48% |
| CN1CC(Oc2cnc(C#N)cc2-c2ccn3nc(NC(=O)C4CC4)cc3c2)C1 | CDK7 with cyclin H, MAT1 | inhibitor, KinaseProfiler panel |  | 1 µM |  | inhibition | -29% |
| CNc1ncc2c(/C=C/C(=O)N3CCC(OC)CC3)nn(Cc3cccc(C(F)(F)F)c3)c2n1 | CDK7 with cyclin H, MAT1 | kinase activity, inhibitor |  | 1 µM | baseline: untreated control | remaining activity | 90% |
| O=C(NC1CCC1)c1ccc2nc(-c3cccc(NS(=O)(=O)NCCN4CCCCC4)c3)cn2c1 | CDK7 | enzyme activity |  | 10 µM |  | remaining activity | 75% |
| Cc1c(O)cc2oc3c(c(=O)c2c1O)-c1ccccc1OC3O (stereo not drawn) | CDK7 | inhibitor |  | 10 µM |  | inhibition | 60.4 ± 0.2% |
| COc1cc(-c2cncc3c2CN(C)Cc2cc(N4CCNCC4)ccc2-3)cc(OC)c1OC | CDK7 | kinase activity |  | 1 µM, human enzyme, together with: ATP 10 µM | baseline: DMSO control | remaining activity | 115% |
| CS(=O)(=O)Nc1cccc(-c2csc(NC(=O)CSc3nc4nccnc4c(=O)n3CCc3ccccc3)n2)c1 | CDK7 with cyclin H, MAT1 | kinase activity, inhibitor |  | 10 µM |  | inhibition | -6% |
| CN(C)C/C=C/C(=O)Nc1ccc(C(=O)Nc2cccc(Nc3ncc(Cl)c(-c4c[nH]c5ccccc45)n3)c2)cc1 | CDK7 with cyclin H, MAT1 | kinase activity, Kinase-Glo luminescence |  | concentration not given |  | normalized luminescence | 0.801 and 1.33 and 1.12 |
| CN(C)C1CCN(CC#Cc2nn(C3CCCC3)c3nc(NCc4ccccc4)ncc23)C1 (stereo not drawn) | CDK7 with cyclin H, MAT1 | enzyme activity, inhibitor, Z'-LYTE |  | 1000 nM |  | inhibition | 1% |
| CC[C@@H]1[C@H](F)C(=O)N[C@@H]1COc1nccc2cc(C(N)=O)c(OC)cc12 | CDK7 | ATP-site probe binding, ActivX profiling | THP-1 cell lysate | 0.2 mM, Lys2 site |  | inhibition | -4.5% |
| CNc1cc(Oc2cc(C(=O)Nc3cc(N4CCN(C)CC4)cc(C(F)(F)F)c3)ccc2C)ncn1 | CDK7 | kinase activity |  | 1 µM |  | inhibition | -12.7% |
| Cc1cc(Nc2cc(N3CCN(C)CC3)nc(Sc3ccc(NC(=O)C4CC4)cc3)n2)[nH]n1 | CDK7 | kinase activity, KinaseProfiler |  | 0.03 µM, species human | baseline: control | remaining activity | 98% |
